Results from different studies.
A part holds a random share of what one study measured. Numbers after ± are the reported error.
UniProt P48432, sequence (whole entry, looked up): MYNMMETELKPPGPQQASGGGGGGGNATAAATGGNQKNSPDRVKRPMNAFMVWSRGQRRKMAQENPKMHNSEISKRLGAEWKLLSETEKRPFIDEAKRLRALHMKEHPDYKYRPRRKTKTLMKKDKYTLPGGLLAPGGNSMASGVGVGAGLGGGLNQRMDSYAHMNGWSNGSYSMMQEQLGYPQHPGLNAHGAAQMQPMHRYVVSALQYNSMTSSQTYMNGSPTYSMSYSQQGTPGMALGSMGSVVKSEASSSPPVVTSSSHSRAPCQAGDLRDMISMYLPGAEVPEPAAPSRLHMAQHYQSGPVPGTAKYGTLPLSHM

Block 1 — technique: protein binding microarray; molecule type: double-stranded DNA, one strand shown; matrix: in vitro; concentration: not given; baseline: not given; reading: higher = stronger binding
Target: Histone acetyltransferase KAT6A, winged helix 1, GST fusion (KAT6A, Homo sapiens, UniProt Q92794, residues 1-85)
Notes: 8-mer, flanks averaged, mean of 2 arrays, mostly near background
Target sequence (chain): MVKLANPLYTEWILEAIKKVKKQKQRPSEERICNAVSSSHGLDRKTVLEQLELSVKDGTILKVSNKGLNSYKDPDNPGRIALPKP
| Strand | E-score |
| --- | --- |
| AGGTCAGA | -0.217 |
| ACCTGCCA | -0.189 |
| AGAACCTC | 0.113 |
| CGAGAAGA | -0.137 |

Block 2 — technique: universal PBM; molecule type: double-stranded DNA, one strand shown; matrix: in vitro; concentration: not given; reading: higher = stronger binding
Target: Sal-like protein 4, full length isoform B (SALL4, Homo sapiens, UniProt Q9UJQ4-2, residues 1-616)
Notes: 8-mer, flanks averaged, mean of replicates
| Strand | E-score |
| --- | --- |
| AGGGCTTC | -0.185 |
| ACCTTATC | 0.134 |
| CGAGGCCC | -0.301 |
| AACACCCT | -0.106 |

Other studies, line by line
| Substance | target | test | system | conditions | how to read | quantity | value |
| --- | --- | --- | --- | --- | --- | --- | --- |
| GGCGGCGGCATTGTCCGGCGCGCGG (dsDNA) | Sox2 41-119 (Mus musculus, UniProt P48432) | EMSA | double-stranded DNA, one strand shown |  |  | Kd | 1.87 ± 0.659 nM |
| PhoQ, residues 284 288 289 292 302 303 SLSLLA | PhoP, residues 12 14 15 18 19 TQCLL (Escherichia coli, UniProt P23836) | Sort-seq, refers to: YFP reporter | E. coli | PhoQ-PhoP variant library, together with: 10 µM Mg2+ | baseline: high Mg2+ state, higher = stronger signaling | fold induction | 4.82 |

A few entries again (other studies, line by line):
| Substance | target | test | system | conditions | how to read | quantity | value |
| --- | --- | --- | --- | --- | --- | --- | --- |
| GGCGGCGGCATTGTCCGGCGCGCGG (dsDNA) | Sox2 41-119 (Mus musculus, UniProt P48432) | EMSA | double-stranded DNA, one strand shown |  |  | Kd | 1.87 ± 0.659 nM |
